{"data": "Measurements pooled from the literature", "note": "Each numbered part is a random draw from the data of one study; scales do not carry over between parts. Substitutions count along the parent as printed.", "chain of UniProt Q9LQE8 (whole entry, looked up)": "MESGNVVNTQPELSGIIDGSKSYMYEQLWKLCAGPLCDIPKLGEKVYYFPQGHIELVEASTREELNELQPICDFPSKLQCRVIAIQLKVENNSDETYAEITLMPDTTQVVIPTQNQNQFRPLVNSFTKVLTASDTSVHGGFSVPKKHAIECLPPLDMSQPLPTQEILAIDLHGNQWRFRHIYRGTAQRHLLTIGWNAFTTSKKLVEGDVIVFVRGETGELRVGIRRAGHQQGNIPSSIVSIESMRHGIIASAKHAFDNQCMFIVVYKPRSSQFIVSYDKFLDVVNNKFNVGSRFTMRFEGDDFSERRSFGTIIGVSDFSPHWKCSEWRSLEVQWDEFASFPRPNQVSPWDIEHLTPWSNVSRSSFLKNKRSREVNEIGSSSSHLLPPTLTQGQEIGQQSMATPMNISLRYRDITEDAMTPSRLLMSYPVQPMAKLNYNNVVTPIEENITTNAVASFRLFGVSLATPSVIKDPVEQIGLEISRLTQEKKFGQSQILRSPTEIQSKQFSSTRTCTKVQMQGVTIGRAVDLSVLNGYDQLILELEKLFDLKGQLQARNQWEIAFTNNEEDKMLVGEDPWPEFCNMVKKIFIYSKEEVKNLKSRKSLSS", "chain of UniProt Q9C5X0 (whole entry, looked up)": "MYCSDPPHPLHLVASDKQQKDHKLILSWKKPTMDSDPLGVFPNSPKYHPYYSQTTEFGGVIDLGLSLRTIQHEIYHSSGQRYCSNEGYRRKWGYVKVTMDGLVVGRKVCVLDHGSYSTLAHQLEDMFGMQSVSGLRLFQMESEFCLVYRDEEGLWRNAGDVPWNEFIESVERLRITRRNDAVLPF", "chain of UniProt O23661 (whole entry, looked up)": "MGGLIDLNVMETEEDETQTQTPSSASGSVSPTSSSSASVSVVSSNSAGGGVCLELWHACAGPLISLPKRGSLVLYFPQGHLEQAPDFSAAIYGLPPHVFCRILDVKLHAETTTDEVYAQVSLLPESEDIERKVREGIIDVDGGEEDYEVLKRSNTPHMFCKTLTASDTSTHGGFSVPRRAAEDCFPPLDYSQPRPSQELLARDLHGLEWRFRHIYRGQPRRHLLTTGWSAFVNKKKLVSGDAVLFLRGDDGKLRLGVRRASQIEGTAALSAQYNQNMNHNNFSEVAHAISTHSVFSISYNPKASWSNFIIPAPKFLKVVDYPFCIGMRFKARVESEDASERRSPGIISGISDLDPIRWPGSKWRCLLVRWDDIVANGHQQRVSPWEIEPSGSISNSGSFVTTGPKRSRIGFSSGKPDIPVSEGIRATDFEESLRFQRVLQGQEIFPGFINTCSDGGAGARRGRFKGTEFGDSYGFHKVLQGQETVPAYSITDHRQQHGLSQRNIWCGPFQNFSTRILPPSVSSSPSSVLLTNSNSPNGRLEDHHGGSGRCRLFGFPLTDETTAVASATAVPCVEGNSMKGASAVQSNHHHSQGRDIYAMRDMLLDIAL", "chain of UniProt Q8RYC8 (whole entry, looked up)": "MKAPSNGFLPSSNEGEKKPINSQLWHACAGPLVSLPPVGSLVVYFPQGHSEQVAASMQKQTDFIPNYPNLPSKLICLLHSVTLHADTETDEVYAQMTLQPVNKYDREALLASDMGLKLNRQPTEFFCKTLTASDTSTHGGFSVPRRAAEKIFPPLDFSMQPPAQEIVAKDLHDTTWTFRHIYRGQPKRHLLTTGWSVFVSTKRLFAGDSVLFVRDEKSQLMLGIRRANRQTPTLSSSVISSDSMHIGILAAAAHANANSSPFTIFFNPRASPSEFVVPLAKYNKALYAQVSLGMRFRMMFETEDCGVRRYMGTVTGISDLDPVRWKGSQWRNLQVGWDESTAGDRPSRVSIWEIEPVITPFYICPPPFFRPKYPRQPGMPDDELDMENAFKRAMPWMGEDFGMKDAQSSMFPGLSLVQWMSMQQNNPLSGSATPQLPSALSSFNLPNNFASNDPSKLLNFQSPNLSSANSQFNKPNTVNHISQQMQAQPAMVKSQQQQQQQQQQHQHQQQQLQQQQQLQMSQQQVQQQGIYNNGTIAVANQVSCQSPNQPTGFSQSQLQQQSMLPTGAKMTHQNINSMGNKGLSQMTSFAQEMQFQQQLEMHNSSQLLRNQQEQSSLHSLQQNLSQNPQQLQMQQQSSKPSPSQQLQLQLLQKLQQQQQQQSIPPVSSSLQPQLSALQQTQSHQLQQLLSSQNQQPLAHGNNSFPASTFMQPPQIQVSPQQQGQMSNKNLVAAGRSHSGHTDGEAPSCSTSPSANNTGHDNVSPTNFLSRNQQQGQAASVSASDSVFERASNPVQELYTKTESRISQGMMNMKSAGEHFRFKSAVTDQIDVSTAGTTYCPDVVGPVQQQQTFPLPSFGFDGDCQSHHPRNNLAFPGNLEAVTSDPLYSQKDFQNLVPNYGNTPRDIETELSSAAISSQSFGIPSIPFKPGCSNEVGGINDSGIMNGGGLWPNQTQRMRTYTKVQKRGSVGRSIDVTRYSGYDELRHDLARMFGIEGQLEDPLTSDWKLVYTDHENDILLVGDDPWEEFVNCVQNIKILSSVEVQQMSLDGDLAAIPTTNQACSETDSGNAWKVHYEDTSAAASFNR"}
{"data": "Block 1", "target": "RING finger protein unkempt homolog, zinc fingers 1-6, GST-SBP tag (UNK, Homo sapiens, UniProt Q9C0B0, residues 30-357)", "method": "RNA Bind-n-Seq", "form": "RNA", "sample": "in vitro", "concentration": "not given", "notes": "RNA with constant flanks, human and mouse sites, ends assumed", "relative to": "input RNA pool", "direction": "higher = stronger binding", "Residues (chain)": "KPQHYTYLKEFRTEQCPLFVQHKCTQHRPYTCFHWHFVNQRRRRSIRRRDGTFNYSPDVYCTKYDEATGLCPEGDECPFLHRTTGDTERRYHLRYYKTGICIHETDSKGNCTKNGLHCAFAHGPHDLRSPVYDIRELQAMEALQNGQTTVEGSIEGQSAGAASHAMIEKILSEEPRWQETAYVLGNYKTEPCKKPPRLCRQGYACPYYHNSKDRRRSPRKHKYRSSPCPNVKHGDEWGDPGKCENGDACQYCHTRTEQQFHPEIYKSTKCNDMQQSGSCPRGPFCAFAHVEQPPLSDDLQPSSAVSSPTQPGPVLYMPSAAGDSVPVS"}
{"Oligonucleotide": "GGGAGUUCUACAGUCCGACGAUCAGUGCGCGUGGACGCCGGCCGCGGCGGCGGCACUAUGGGCACGGGGUAGAGGCGAGCUGCCGCCGCCACCGGGGUGGUGGGAGAGCCUCUUCGGGGGAGGGGGCGGGAGGGGAGGGAGGGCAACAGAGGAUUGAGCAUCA", "bound/input enrichment [ratio]": 1.32}
{"Oligonucleotide": "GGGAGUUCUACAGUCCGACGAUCCUCCAUUUCUUCUCAUUUUGUGGCCUCGGGCUCCACCAGCUGCUCCCCAGUGACAGUCCCUAGCUUCCUUCUACCAUCUACUGACUGUCUCCACUGAGCCUUUCCUACCUUCCCUUCACACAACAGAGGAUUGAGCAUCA", "bound/input enrichment [ratio]": 0.464}
{"Oligonucleotide": "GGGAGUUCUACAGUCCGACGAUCUUUGAGCUGAUGACCAACCUUCACACCAAGCUGGAAGGCUUCCACACGCAGAUCUCCAAGUACUUCUCCGAGAGGGGUGACGCCGUGGCCAAAGCAGCCAAGCAGCCCCACGUGGGUGACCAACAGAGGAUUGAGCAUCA", "bound/input enrichment [ratio]": 0.081}
{"Oligonucleotide": "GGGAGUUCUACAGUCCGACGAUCCUGAGAAUCUAUCUUGAUGAAAGGAGAGAUGUCUUGGAUGACCUUGUAACCUUGCAUAAUUUUAGAAAUCAGUUCUUGCCGAAUGCACUGAGAGAAUUUUUUCGUCAUAUUCAUGCCCCUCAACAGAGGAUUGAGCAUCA", "bound/input enrichment [ratio]": 0.128}
{"Oligonucleotide": "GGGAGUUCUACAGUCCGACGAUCCGUGCAGUAGAAUGUUGUGUGAGGUUGCUUCAUGUGCGAAAUGGAAACUGCAAAUAUCAUUUGGGUGAAGAAACAUUUAAAUUAGCUCAGACAUAUAUGGAUAAACUAUCAAAACAUGGCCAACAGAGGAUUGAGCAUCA", "bound/input enrichment [ratio]": 0.753}
{"Oligonucleotide": "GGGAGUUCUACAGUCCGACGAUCUAUUUUUUAGAACAGCUAUUUGAUUUCUUCUCAAAGUCACUGCUGCCUUCUGAGUUGUAGUUAGCGCCUUCUCCAGCUUCCUGCAGCAUGACAGAAGAGAGAUACAGCAGUUGUUUCAAACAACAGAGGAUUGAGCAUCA", "bound/input enrichment [ratio]": 0.371}
{"Oligonucleotide": "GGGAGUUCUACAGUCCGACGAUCAAGAUCUCUGAUGAUCUGAUGCAGAAGAUCAGUACUCAGAACCGCCGGGCCCUAGACCUUGUAGCCGCAAAGUGUUACUAUUAUCACGCCCGGGUCUAUGAGUUCCUGGACAAGCUGGAUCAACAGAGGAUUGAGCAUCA", "bound/input enrichment [ratio]": 0.149}
{"Oligonucleotide": "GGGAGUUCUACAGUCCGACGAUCAGGAGUGAUGUAAUGGAGCUCCUUAAGAAGUCGGCCGAGGAAAGAAAACCUUAAAGGGACACUAGUGUGAUGCUUUGUCUUAAUGUGGGUUUUUCUGUUUCAGUUUGCCACCUCCAGAUGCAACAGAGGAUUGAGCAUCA", "bound/input enrichment [ratio]": 0.132}
{"data": "Block 2", "target": "UBE2D1 UBC core domain (UniProt P51668)", "method": "yeast two-hybrid", "sample": "yeast", "notes": "mostly zero background", "relative to": "not given", "direction": "higher = stronger interaction", "B1": "TRIM43 RING domain (UniProt Q96BQ3); chain FSHAFQKELTCVICLNYLVDPVTICCGHSFCRPCLCLSWEEAQSPANCPACREPSPKMDFKT", "B2": "SH3RF2 RING domain (UniProt Q8TEC5); chain DDLTLLDLLECPVCFEKLDVTAKVLPCQHTFCKPCLQRVFKAHKELRCPECRTPVFSNIEAL", "B3": "TRIML1 RING domain (UniProt Q8N9V2); chain LMENLREELTCFICLDYFSSPVTTECGHSFCLVCLLRSWEEHNTPLSCPECWRTLEGPHFQS", "B4": "MKRN1 RING domain (UniProt Q9UHC7); chain FAVQRSKDMVCGICMEVVYEKANPSERRFGILSNCNHTYCLKCIRKWRSAKQFESKIIKSCPECRITSNFVIPSE", "B5": "TRIM5 RING domain (UniProt Q9C035); chain LREVKLSPEGQKVDHCARHGEKLLLFCQEDGKVICWLCERSQEHRGHHTFLTEEVAREYQVKL", "B6": "RNF208 RING domain (UniProt Q9H0X6); chain SSAAAGEPLECPTCGHSYNVTQRRPRVLSCLHSVCEQCLQILYESCPKYKFISCPTCRRETVLFTDYG", "Residues (chain)": "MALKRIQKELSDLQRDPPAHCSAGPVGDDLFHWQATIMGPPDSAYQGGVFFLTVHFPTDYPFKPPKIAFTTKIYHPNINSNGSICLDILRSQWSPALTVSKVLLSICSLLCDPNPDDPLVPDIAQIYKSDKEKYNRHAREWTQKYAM"}
{"Molecule": "DHGAVGQEMCCPICCSEYVKGEVATELPCHHYFHKPCVSIWLQKSGTCPVCRCMFPPPL (PJA1 RING domain (UniProt Q8NG27))", "lacZ reporter activity": 0}
{"Molecule": "B1 (TRIM43 RING domain)", "lacZ reporter activity": 0}
{"Molecule": "B2 (SH3RF2 RING domain)", "lacZ reporter activity": 0}
{"Molecule": "B3 (TRIML1 RING domain)", "lacZ reporter activity": 0}
{"Molecule": "B4 (MKRN1 RING domain)", "lacZ reporter activity": 0}
{"Molecule": "MPIRALCTICSDFFDHSRDVAAIHCGHTFHLQCLIQWFETAPSRTCPQCRIQVGKRTIIN (TRAIP RING domain (UniProt Q9BWF2))", "lacZ reporter activity": 0}
{"Molecule": "B5 (TRIM5 RING domain)", "lacZ reporter activity": 0}
{"Molecule": "GAAPGPEAAECLVCSELALLVLFSPCQHRTVCEECARRMKKCIRCQVVVSKKLRPD (MIB2 RING domain (UniProt Q96AX9))", "lacZ reporter activity": 0}
{"Molecule": "B6 (RNF208 RING domain)", "lacZ reporter activity": 0}
{"data": "Block 3", "target": "CCNF, cyclin fold, Cln2 fusion (human)", "method": "yeast growth competition, sequencing", "sample": "yeast", "notes": "strong parent motif", "relative to": "not given", "direction": "higher = stronger binding", "starting sequence": "GMNC docking peptide (human); KNAKRNLSSEFAN"}
{"Change": "KNAKRELSSEFAN [N6E]", "normalised enrichment score": 0.634}
{"Change": "KEAKRNLSSEFAN [N2E]", "normalised enrichment score": 1.05}
{"Change": "KNALRNLSSEFAN [K4L]", "normalised enrichment score": 0.319}
{"Change": "KNAKRNLNSEFAN [S8N]", "normalised enrichment score": 1.38}
{"Change": "KNAKRNLSSHFAN [E10H]", "normalised enrichment score": 0.407}
{"Change": "KNHKRNLSSEFAN [A3H]", "normalised enrichment score": 0.497}
{"Change": "KNAKRHLSSEFAN [N6H]", "normalised enrichment score": 0.399}
{"Change": "KNAKRNLSSEFGN [A12G]", "normalised enrichment score": 0.66}
{"Change": "KNAKRNLSDEFAN [S9D]", "normalised enrichment score": 1.34}
{"Change": "KNAKRNLASEFAN [S8A]", "normalised enrichment score": 0.742}
{"data": "Block 4", "Molecule": "IAA8 (Arabidopsis thaliana, UniProt Q38826)", "method": "two-hybrid", "direction": "higher = firmer interaction", "chain of UniProt Q38826 (whole entry, looked up)": "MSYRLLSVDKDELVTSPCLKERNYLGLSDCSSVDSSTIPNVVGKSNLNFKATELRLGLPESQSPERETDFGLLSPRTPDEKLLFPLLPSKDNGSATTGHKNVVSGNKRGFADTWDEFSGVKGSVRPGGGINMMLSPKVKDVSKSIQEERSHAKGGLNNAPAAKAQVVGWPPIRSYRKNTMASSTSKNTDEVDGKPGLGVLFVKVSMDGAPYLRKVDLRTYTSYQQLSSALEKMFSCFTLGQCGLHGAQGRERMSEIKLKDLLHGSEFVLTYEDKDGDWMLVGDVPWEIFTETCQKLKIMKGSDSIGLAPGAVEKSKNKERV"}
{"partner": "ARF19 948-1086 (Arabidopsis thaliana, UniProt Q8RYC8)", "relative to": "out of 3 tests", "positive tests": 2}
{"partner": "IAA34 (Arabidopsis thaliana, UniProt Q9C5X0)", "relative to": "out of 4 tests", "positive tests": 4}
{"partner": "ETT (Arabidopsis thaliana, UniProt O23661)", "relative to": "out of 2 tests", "positive tests": 0}
{"partner": "ARF14 497-605 (Arabidopsis thaliana, UniProt Q9LQE8)", "relative to": "out of 2 tests", "positive tests": 0}
{"data": "Other studies, line by line", "method": "cross-linking MS"}
{"Molecule": "YBX1 (Homo sapiens, UniProt P67809)", "partner": "C1QBP (Homo sapiens, UniProt Q07021)", "sample": "cell fractions", "with": "DSSO", "quantity": "cross-linked residues", "result": "K296 to K104"}
{"Molecule": "DNAH8 (Homo sapiens, UniProt Q96JB1)", "partner": "SRRT (Homo sapiens, UniProt Q9BXP5)", "sample": "cell fractions", "with": "DSSO", "quantity": "cross-linked residues", "result": "K1720 to K208"}
{"Molecule": "CEP120 (Homo sapiens, UniProt Q8N960)", "partner": "RRBP1 (Homo sapiens, UniProt Q9P2E9)", "notes": "hits only", "quantity": "interaction screen", "result": "cross-linked"}
{"Molecule": "SEPTIN2 (Homo sapiens, UniProt Q15019)", "partner": "SEPTIN11 (Homo sapiens, UniProt Q9NVA2)", "notes": "hits only", "quantity": "interaction screen", "result": "cross-linked"}
